Measurements collected from several papers.
A part holds a random share of what one study measured.
Chain of UniProt P42680 (whole entry, looked up): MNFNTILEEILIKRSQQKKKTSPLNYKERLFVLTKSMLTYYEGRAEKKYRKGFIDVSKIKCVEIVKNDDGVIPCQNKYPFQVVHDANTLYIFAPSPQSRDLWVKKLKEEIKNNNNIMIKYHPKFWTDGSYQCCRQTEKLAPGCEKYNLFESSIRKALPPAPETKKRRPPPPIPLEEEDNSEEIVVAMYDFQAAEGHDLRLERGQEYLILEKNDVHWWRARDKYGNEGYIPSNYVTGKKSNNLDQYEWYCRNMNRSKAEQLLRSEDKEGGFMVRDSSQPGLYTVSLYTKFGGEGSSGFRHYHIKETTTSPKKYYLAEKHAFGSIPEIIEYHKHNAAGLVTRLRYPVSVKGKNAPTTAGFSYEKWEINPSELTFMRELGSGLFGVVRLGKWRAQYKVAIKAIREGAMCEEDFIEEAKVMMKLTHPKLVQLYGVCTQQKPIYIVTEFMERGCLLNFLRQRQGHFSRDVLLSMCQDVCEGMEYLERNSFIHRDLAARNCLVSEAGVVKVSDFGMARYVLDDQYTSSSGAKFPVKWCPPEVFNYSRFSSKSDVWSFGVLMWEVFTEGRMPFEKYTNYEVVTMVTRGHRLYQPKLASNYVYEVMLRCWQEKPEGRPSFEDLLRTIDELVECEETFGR
Chain of UniProt P00519 (whole entry, looked up): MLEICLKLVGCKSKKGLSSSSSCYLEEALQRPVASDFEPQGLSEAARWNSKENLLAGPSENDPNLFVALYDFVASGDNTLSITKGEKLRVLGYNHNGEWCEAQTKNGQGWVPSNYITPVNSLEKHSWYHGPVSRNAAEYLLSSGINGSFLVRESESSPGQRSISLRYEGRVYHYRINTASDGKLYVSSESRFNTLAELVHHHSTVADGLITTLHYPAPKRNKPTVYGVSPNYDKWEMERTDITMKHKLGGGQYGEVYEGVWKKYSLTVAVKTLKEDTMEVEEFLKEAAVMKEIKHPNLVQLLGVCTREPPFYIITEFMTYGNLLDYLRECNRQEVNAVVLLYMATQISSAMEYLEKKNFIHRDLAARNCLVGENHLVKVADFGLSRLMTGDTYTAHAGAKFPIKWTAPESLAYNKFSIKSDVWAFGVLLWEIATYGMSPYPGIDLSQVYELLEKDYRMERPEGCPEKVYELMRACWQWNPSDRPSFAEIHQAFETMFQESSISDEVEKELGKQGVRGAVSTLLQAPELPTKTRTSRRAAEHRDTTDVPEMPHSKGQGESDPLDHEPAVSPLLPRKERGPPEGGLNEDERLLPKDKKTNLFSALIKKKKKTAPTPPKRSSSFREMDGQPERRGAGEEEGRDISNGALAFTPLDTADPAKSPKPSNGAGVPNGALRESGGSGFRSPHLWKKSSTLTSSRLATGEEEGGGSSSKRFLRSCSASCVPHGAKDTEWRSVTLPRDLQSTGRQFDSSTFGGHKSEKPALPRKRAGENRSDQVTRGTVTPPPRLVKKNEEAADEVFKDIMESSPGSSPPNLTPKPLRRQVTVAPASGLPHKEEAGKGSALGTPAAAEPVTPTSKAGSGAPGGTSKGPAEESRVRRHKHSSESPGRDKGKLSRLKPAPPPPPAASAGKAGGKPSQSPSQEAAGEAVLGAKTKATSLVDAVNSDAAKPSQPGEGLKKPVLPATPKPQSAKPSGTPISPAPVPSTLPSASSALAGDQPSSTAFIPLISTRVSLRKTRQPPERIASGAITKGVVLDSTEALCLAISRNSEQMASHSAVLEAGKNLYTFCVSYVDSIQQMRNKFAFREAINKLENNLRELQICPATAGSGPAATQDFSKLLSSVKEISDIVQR
Chain of UniProt Q9Y616 (whole entry, looked up): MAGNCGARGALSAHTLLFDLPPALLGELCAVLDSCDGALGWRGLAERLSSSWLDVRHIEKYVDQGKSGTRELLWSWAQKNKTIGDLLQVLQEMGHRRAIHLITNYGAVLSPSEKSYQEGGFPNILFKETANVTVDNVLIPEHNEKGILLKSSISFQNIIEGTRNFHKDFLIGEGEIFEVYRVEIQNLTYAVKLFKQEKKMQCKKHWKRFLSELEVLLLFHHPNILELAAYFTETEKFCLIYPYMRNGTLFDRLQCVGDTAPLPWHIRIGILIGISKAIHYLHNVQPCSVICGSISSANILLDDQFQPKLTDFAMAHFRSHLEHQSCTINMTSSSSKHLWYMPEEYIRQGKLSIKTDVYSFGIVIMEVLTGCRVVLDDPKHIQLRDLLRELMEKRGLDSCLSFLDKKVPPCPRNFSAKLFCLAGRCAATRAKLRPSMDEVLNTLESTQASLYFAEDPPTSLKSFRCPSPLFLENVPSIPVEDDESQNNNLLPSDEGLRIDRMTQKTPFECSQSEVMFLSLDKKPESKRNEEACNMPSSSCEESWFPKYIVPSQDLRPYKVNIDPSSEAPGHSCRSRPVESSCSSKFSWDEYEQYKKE
Chain of UniProt P51956 (whole entry, looked up): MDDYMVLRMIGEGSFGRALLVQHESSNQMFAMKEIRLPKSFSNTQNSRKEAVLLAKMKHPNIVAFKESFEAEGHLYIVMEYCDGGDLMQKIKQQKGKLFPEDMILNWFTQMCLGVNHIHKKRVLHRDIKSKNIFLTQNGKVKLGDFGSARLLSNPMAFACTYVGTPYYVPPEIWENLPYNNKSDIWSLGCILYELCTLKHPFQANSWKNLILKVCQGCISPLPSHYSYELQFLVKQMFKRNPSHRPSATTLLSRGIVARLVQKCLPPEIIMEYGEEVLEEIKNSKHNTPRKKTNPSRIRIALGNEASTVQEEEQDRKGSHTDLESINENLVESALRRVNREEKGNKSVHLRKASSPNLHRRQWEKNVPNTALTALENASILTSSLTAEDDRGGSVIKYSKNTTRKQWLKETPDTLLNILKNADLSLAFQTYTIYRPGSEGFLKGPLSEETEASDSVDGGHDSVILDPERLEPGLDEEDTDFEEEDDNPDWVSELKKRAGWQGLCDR
Chain of UniProt Q16539 (whole entry, looked up): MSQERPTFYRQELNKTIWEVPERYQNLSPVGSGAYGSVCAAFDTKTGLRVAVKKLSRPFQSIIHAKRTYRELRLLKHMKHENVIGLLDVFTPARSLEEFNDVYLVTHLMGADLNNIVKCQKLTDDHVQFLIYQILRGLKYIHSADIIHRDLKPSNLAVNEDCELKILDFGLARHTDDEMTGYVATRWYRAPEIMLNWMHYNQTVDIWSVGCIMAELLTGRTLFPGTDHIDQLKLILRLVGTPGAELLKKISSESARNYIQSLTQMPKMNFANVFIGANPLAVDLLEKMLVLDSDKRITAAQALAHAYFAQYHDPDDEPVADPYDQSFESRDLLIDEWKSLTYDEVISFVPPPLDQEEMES

Series 1
Target: Centromere-binding protein 1, full length, N-terminal tag (CBF1, Saccharomyces cerevisiae, UniProt P17106, residues 1-351)
Chain of UniProt P17106 (whole entry, looked up): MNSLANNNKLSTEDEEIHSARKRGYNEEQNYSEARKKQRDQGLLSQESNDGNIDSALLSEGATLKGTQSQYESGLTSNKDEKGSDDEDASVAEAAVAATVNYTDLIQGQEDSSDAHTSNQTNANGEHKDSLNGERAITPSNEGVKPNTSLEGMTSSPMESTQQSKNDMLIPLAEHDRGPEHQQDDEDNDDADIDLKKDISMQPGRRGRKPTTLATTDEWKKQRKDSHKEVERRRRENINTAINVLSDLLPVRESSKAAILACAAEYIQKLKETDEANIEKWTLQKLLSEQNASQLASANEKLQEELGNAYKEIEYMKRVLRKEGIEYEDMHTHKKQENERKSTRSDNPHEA
Method: protein-binding microarray
Form: double-stranded DNA, one strand shown
Matrix: in vitro
Concentration: 0.8 µM
Notes: whole 60-bp probe, no competitor
Direction: higher = stronger binding
All sequences stand within: … GTCTTGATTCGCTTGACGCTGCTG
The fluorescence intensity of `CTATCGGAGAAGGTGGTCAGGCACACGTGATTCTTC` is reported as 12500 a.u.
With `CTAATCCGGAAAAACTACGTGACAGGAACGATGTTC` the fluorescence intensity was 608 a.u.
With `GAAATGTGACAAGAGGTGGTGACATAAAAATAATAG` the fluorescence intensity was 694 a.u.
For `GAAGCCCGAAATCCTCATGATCGAGCCGAATGCTAG`, the fluorescence intensity was 510 a.u.
For `CTAACAGCTCACTTGTGCATGAAGTTCATGTTTTTC`, the fluorescence intensity was 499 a.u.
With `GAATGAAAAGTTCTCCACACGTGTTTTTCTCTTTAG` the fluorescence intensity was 3340 a.u.
With `CTATGAGTAGGATCCAACGTGCCAAAGAATTTATTC` the fluorescence intensity was 613 a.u.
For `GAAGTGGAAAAACAACACGTCTCCCCGCCCCTGTAG`, the fluorescence intensity was 542 a.u.

Series 2
Structure (SMILES): CCC(=O)N[C@@H]1CC[C@H](C(=O)N(C)c2ccc(-c3nc4ccccc4o3)cc2)C1
Effect on: cell-free assay
Method: competition with immobilised ligand
Concentration: 1 µM
The remaining binding was 76% (Tyrosine-protein kinase ABL1, non-phosphorylated (ABL1, Homo sapiens, UniProt P00519)).
The remaining binding was 75% (PIK3CA (Homo sapiens, UniProt P42336, E545K)).
The remaining binding was 73% (NEK3 (Homo sapiens, UniProt P51956)).
It gave 100% for remaining binding (EPHB1 (Homo sapiens, UniProt P54762)).
It gave 86% for remaining binding (PIP5K1A (Homo sapiens, UniProt Q99755)).
MUSK (Homo sapiens, UniProt O15146) — remaining binding: 100%.
It gave 100% for remaining binding (FLT3 (Homo sapiens, UniProt P36888, ITD)).
For IRAK3 (Homo sapiens, UniProt Q9Y616): remaining binding read 100%.
For RIOK1 (Homo sapiens, UniProt Q9BRS2): remaining binding read 100%.
It gave 100% for remaining binding (MAPK4 (Homo sapiens, UniProt P31152)).
It gave 75% for remaining binding (PIK3CG (Homo sapiens, UniProt P48736)).
For MAPK12 (Homo sapiens, UniProt P53778): remaining binding read 73%.
It gave 96% for remaining binding (MAP3K3 (Homo sapiens, UniProt Q99759)).
For TAOK2 (Homo sapiens, UniProt Q9UL54): remaining binding read 89%.
For MAPK14 (Homo sapiens, UniProt Q16539): remaining binding read 95%.
For SIK2 (Homo sapiens, UniProt Q9H0K1): remaining binding read 100%.
It gave 100% for remaining binding (EGFR (Homo sapiens, UniProt P00533, L858R/T790M)).
The remaining binding was 100% (TEC (Homo sapiens, UniProt P42680)).

Series 3
Target: Phosphorylase b kinase gamma catalytic chain, liver/testis isoform (PHKG2, Homo sapiens, UniProt P15735)
Effect on: enzyme activity
Mode: inhibitor
Concentration: 0.5 µM
Relative to: control
Construct (P15735 1-406): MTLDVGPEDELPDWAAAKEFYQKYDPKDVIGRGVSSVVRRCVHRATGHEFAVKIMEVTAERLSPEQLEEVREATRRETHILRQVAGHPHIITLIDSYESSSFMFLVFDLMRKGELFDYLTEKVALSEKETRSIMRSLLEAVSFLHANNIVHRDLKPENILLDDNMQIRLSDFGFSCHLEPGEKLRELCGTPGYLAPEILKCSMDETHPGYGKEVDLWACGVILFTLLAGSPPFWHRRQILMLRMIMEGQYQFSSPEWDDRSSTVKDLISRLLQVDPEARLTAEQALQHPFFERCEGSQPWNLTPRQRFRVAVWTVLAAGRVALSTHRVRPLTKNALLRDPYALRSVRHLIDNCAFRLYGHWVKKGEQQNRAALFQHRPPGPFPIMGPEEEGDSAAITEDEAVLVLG
`C[C@@H]1CCN(C(=O)CC#N)C[C@@H]1N(C)c1ncnc2[nH]ccc12` gave a remaining activity of 98.6%.
For `COc1cc2ncnc(Nc3ccc(O)c(Br)c3)c2cc1OC`, the remaining activity was 98%.
`CCOc1nc(NC(=O)Cc2cc(OC)ccc2OC)cc(N)c1C#N` gave a remaining activity of 100%.
`COc1cc2ncnc(Nc3cccc(Cl)c3)c2cc1OC` has a remaining activity of 92.6%.
With `N#Cc1c(NC(=O)c2cccc3ccccc23)sc2c1CCCC2` the remaining activity was 101%.
For `Cc1cn(-c2cc(NC(=O)c3ccc(C)c(Nc4nccc(-c5cccnc5)n4)c3)cc(C(F)(F)F)c2)cn1`, the remaining activity was 97.9%.
The remaining activity of `CCN(CC)CCNC(=O)c1c(C)[nH]c(/C=C2\C(=O)Nc3ccc(Cl)cc32)c1C` is reported as 16.6%.
The remaining activity of `Cc1nc2cc3nc(-c4cccs4)cnc3cc2n1C` is reported as 102%.
The remaining activity of `c1ccc(-c2cnc(Nc3ccc(OCCN4CCCC4)cc3)s2)cc1` is reported as 97%.
The remaining activity of `CCN(CC)C(=O)c1ccc(Nc2nc(OCC3CCCCC3)c3[nH]cnc3n2)cc1` is reported as 96.6%.
With `CCN(CC)CCNC(=O)c1c(C)[nH]c(/C=C2\C(=O)Nc3ccc(F)cc32)c1C` the remaining activity was 20.6%.
The remaining activity of `O=C(Nc1cccc(Nc2nccc(Nc3cccc(C(F)(F)F)c3)n2)c1)C1CC1` is reported as 107%.

Series 4
Target: RING finger protein unkempt homolog, zinc fingers 1-6, GST-SBP tag (UNK, Homo sapiens, UniProt Q9C0B0, residues 30-357)
Chain of UniProt Q9C0B0 (30-357, looked up): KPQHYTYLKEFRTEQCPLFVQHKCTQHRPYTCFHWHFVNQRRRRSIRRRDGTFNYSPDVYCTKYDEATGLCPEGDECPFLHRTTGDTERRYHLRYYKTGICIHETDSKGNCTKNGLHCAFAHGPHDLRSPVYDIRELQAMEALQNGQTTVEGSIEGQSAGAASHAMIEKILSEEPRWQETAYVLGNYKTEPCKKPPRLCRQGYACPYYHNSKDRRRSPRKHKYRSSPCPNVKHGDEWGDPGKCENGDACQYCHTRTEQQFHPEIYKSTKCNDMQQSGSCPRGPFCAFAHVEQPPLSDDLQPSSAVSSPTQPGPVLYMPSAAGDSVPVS
Method: RNA Bind-n-Seq
Form: RNA
Matrix: in vitro
Concentration: not given
Notes: RNA with constant flanks, ends assumed
Relative to: input RNA pool
Direction: higher = stronger binding
All sequences stand within: GGGAGUUCUACAGUCCGACGAUC … CAACAGAGGAUUGAGCAUCA
For `AAGGAAAUGCUGGCCGCAAACCCUCAGGAUCGCCCUGAUGCUUUUGAACUAGAACUCAGAUCCGUCCAAAUUGCAUUUAAAGACAGCAGCUGGGAGACGUGACCUACUGCUUGCAAGCAU`, the bound/input enrichment was 0.136 ratio.
`CUACCCAGCCCUCUUCUUGUUUGUAUUUGUUUAGGGUUGUGAGGUUGUGUAAAAUAGUACCCGCUUCUUACUUGAGAACUACAGUUUCUGCUUAUCAUUUAUUCUUCCUUGUGGCACUUA` gave a bound/input enrichment of 0.408 ratio.
`CUGACUUUAUUUGGAAUUGCUGAUAAGAUCUCCUUUGACCUCAGCCUGGCUCGGGGCCCCGACUACUAUACAGGAGUGAUCUAUGAAGCAGUGCUGCUGCAGACCCCAACUCAGGCUGGG` gave a bound/input enrichment of 0.123 ratio.
With `GCAAGAAUGCAGAGAGCUGGAAUUCCUUGUCCAACAGUUGUACUACUGAAGAAACACAUUUCCGUUAUGUCUUUUAUUGGCCAUGAUCAAGUUCCAGCCCCUAAAUUAAAAGAAGUAAAG` the bound/input enrichment was 0.117 ratio.
For `AUAAUAAAUUAAAUAAUUGGAUCCUAGGCAUACCAAUAAAUGUUAUUUGGGGAAAGAAGCCCGCACUAUCUCAUGCAGUGAGAAUAACGGGUUCUAGUGAAUUAUCCUAUCUACACUACC`, the bound/input enrichment was 0.857 ratio.
For `CAUAUUUUAGAGGUAAUCAUGUCUUCUAGAUUACUUGUGUGCAUUUGAUUGGGCUUCUUGUUCCGGGUCCCUUUUAAAAUUAAUUCAUUAGAUUGAAAAAUGUAUUCUAUAUUUCUGAUA`, the bound/input enrichment was 6.64 ratio.
`GGUGGAGAUGGAGAUGAUAUGGAAAUGUUCAUGGAGGAGAUGAGAGAGAUCCGGAGAAAGCUCCGGGAGCUACAGCUGAGAAAUUGUCUACGCAUCCUUAUGGGGGAGCUGUCUAACCAC` has a bound/input enrichment of 0.288 ratio.
`CCUCCCAAGUAGCUGGGACUACAGGUGUGUGCCACUAAGCUCAGCUAAUUUUUGUAUUUUCCGCCGAGACGGGGUUUCACCAUUUUGACCAGGAUGGUCUUGAUCUCUUGACCUCAUGAU` gave a bound/input enrichment of 0.24 ratio.

Repeated from above (series 4):
With `GCAAGAAUGCAGAGAGCUGGAAUUCCUUGUCCAACAGUUGUACUACUGAAGAAACACAUUUCCGUUAUGUCUUUUAUUGGCCAUGAUCAAGUUCCAGCCCCUAAAUUAAAAGAAGUAAAG` the bound/input enrichment was 0.117 ratio.
For `AUAAUAAAUUAAAUAAUUGGAUCCUAGGCAUACCAAUAAAUGUUAUUUGGGGAAAGAAGCCCGCACUAUCUCAUGCAGUGAGAAUAACGGGUUCUAGUGAAUUAUCCUAUCUACACUACC`, the bound/input enrichment was 0.857 ratio.
For `CAUAUUUUAGAGGUAAUCAUGUCUUCUAGAUUACUUGUGUGCAUUUGAUUGGGCUUCUUGUUCCGGGUCCCUUUUAAAAUUAAUUCAUUAGAUUGAAAAAUGUAUUCUAUAUUUCUGAUA`, the bound/input enrichment was 6.64 ratio.
`GGUGGAGAUGGAGAUGAUAUGGAAAUGUUCAUGGAGGAGAUGAGAGAGAUCCGGAGAAAGCUCCGGGAGCUACAGCUGAGAAAUUGUCUACGCAUCCUUAUGGGGGAGCUGUCUAACCAC` has a bound/input enrichment of 0.288 ratio.
